Experimental data gathered from unrelated publications.
Every numbered part comes from another study and shows a few of its results, in no order.

Set 1 — method: RNA Bind-n-Seq; molecule type: RNA; medium: in vitro; concentration: 365 nM; baseline: no-protein control; direction: higher = stronger binding
Target: RNA binding protein fox-1 homolog 2, RRM domain, GST-SBP tag (RBFOX2, Homo sapiens, UniProt O43251-10, residues 100-194)
Notes: natural RNA segment, single round, ends assumed
Shared flanks, not repeated: GGGAGUUCUACAGUCCGACGAUC … UGGAAUUCUCGGGUGCCAA
Residues (chain): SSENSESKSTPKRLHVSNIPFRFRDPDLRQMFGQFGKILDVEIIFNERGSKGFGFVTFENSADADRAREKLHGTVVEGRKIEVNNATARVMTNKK
| Strand | RBNS enrichment (R) |
| --- | --- |
| AGGAAAGGGUCAACACUAAGGGGAGACUGUUGUUGUUGUUGUUGUUGUUGUUGUUGUUGUUUUUCCUUAAUUUGAAAUCAUCUUAUUUUUUAAGACAAAUGUGAAAAUGA | 2.11 |
| GUCCAGUAUAAUUUUCCCUGAUAUGAAAAAAUGUGCAUUUUUUUCACUUAGCAACAAAGUACCUUCUAAUUUCCAAUAGUCCGUGAAAGUUGGGGCUGAAGUACCUAAGU | 1.02 |
| GACUCACCUUCACACGUGAGACUUCGCUCUUACCCCAGCCCCCACCGCUGGAGGGGUUUCAAUCCCCCACCCUGGGGCUCUUCUGCGCAGAAGCUGAAGUCUACGCUCCU | 0.194 |
| AGCCCUGUAGGGGGCUGUGCAGAUGUGGGUGUGCCACAGGGAGGGUGGCCCCUAGCCAUGUAUCCAUUGGCUGUUUUGGCUUCAGAUUCAACCAAGAUCUGCCUGACUAA | 0.376 |
| UGAGCCCUGGGUGGCCGUGCAGUUUCAGUUAUUUUUAGCAGUGCACUGUUUGAGGAAAAAUUACCUGUCUUGACUUCCUGUGUUUAUCAUCUUAAGUAUUGUAAGCUGCU | 0.455 |
| GUUGACAGGUGGGCCCAGUGAACUUUUCCAGUAAAUGAAGCAAGCACUGAAUAAAAACCUCCUGAACUGGGAACAAAGAUCUACAGGCAAGCAAGAUGCCCACACAACAG | 1.11 |
| AUCUUUGUAAAAUGCGCAAGUGCAAUAAUUUAAAGAGGUCUUAACUUUGCAUUUAUAAAUUAUAAAUAUUGUACAUGUGUGUAAUUUUUUCAUGUAUUCAUUUGCAGUCU | 0.772 |
| UUGAGAAAUGGAAAUGCCACCUCAACUUAAAUAAUCACAGUUGGUCAUUUAUGCCCACUUUAAAAUGUAGGGAGUCUGUUUCGGCCCCUUUUCUGGAGUAUAUUUGUACC | 0.339 |
| UUACUUAUUCUAUUCAAGGCAUAGGGCCAAAGCAUUAAGUAUAAUUUAAUCCCAUACAUUCGAGUUAAGUUUAGUGUUGAUGUUCCAUCAUUCUGGACCUCCCAGGAGUU | 0.424 |

Set 2 — method: protein-binding microarray; molecule type: double-stranded DNA, one strand shown; medium: in vitro; concentration: 250 nM; notes: 60-bp whole probe; together with: salmon DNA 0.4 mg/ml; baseline: random background probes; direction: higher = stronger binding; shared flanks, not repeated: GCCTAGCAC … GTCTTGATTCGCTTGACGCTGCTG
Target: Interferon regulatory factor 5, full length, phosphomimetic (IRF5, Homo sapiens, UniProt Q13568-2, residues 1-514, K96S/S451D/S453D/S456D/S462D)
| Strand | log fluorescence |
| --- | --- |
| TTAGATATCAGTCTCGATTAGTGCTAG | 2.22 z-score |
| TTAGAACTGAGTTTCGATTCGTGCTAG | 8.98 z-score |
| TTACGTATCGGGACTGGGTTAGTGCTA | 2.54 z-score |
| TCAATGTTCCCTATATAACTGTGCTAG | 0.586 z-score |
| GGCGGTATCGGACTGGGGACGTGCTAG | 0.752 z-score |
| GACGGACTGGGGATTGGGGACGTGCTA | -0.35 z-score |
| TTAGATCTCAGCCTGGATTAGTGCTAG | -0.179 z-score |
| CTGCCTCACATTGCTAAGACGTGCTAG | -0.219 z-score |
| TTAGGTTCCCTTTCCCTTTAGTGCTAG | 0.994 z-score |
| TCTTCTGGTGTGTCTGAAGAGTGCTAG | -0.0423 z-score |
| GACGATTTCAGTTCCTAGACGTGCTAG | 1.05 z-score |
| TCAAATCTCTCTTCACAACTGTGCTAG | 0.738 z-score |
| CTAGATATCAGTTTCGATTAGTGCTAG | 10 z-score |
| GACGGTTTAGGTTTCGGGACGTGCTAG | 4.08 z-score |
| TTAGGCTTCCTTCTCCTTTAGTGCTAG | -0.19 z-score |
| TTAGGACTGCTTATCCTTAAGTGCTAG | -0.0883 z-score |
| TTAGTACTGGGACTGGGTTAGTGCTAG | -0.622 z-score |
| GACGGTTTCGGACTGAGGACGTGCTAG | 4.08 z-score |
| TTAGTTTTCAGTTTCGATTAGTGCTAG | 10.3 z-score |
| TTAGGTTTCCTACTGCTTGAGTGCTAG | 0.511 z-score |
| GACGATTTCAGTCTAGAGACGTGCTAG | 1.58 z-score |
| AAACAAGTTTCACGTCTTATAGTGCTA | 2.05 z-score |
| TCATCTTTCACTGCTCCAACTGTGCTA | 3.41 z-score |
| TTAGCTTTCGACTTTCGGTTAGTGCTA | 10.8 z-score |
| TTAGGTTTCGGGTTTCGATTAGTGCTA | 9.78 z-score |

Set 3 — method: protein binding microarray; molecule type: double-stranded DNA, one strand shown; medium: in vitro; concentration: not given; baseline: not given; direction: higher = stronger binding
Target: Histone acetyltransferase KAT6A, winged helix 1, GST fusion (KAT6A, Homo sapiens, UniProt Q92794, residues 1-85)
Notes: 8-mer, flanks averaged, mean of 2 arrays, mostly near background
Residues (chain): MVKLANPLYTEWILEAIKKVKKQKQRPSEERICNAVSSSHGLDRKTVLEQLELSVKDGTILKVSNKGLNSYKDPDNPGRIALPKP
| Strand | E-score |
| --- | --- |
| ATCCATGA | -0.29 |
| ATTATAAA | -0.0902 |
| CATACTCA | -0.213 |
| AAGCGATT | 0.0184 |
| GCGCCAAA | 0.23 |
| AGGAGAAT | -0.223 |
| GGCAGAAC | 0.0056 |
| ATGATCTA | -0.149 |
| CATAGTAG | -0.0453 |
| TCCCGAGA | 0.173 |
| AACGTTAC | -0.0331 |
| ACCCACCA | -0.223 |
| AGAGAAGG | -0.139 |
| CTAAGTTC | -0.16 |
| CAGCTATG | -0.226 |
| GTCCTCAC | -0.0315 |
| CTGAACAC | -0.0271 |
| GCAACGAA | -0.088 |
| GCAGACAC | -0.0433 |
| AGTAGAAG | -0.219 |
| CATGAACG | -0.0124 |
| AGCTGACA | -0.0333 |
| CCAAGTCC | -0.0444 |
| AGGTCGGG | -0.0465 |
| CGAAAGTC | -0.0202 |

Set 4 — method: RNA Bind-n-Seq; molecule type: RNA; medium: in vitro; concentration: not given; baseline: input RNA pool; direction: higher = stronger binding
Target: RING finger protein unkempt homolog, zinc fingers 1-6, GST-SBP tag (UNK, Homo sapiens, UniProt Q9C0B0, residues 30-357)
Notes: RNA with constant flanks, human and mouse sites, ends assumed
Shared flanks, not repeated: GGGAGUUCUACAGUCCGACGAUC … CAACAGAGGAUUGAGCAUCA
Residues (chain): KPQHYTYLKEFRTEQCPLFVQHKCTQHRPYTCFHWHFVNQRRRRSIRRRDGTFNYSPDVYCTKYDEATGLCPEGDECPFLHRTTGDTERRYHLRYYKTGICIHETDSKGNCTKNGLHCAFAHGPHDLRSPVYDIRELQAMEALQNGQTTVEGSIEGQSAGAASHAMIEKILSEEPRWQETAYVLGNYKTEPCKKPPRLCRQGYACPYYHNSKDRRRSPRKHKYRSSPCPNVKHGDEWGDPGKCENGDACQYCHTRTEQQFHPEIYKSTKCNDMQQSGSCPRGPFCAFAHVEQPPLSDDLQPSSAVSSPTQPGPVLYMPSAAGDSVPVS
| Strand | bound/input enrichment |
| --- | --- |
| GGCAUGAAGGAUGACCGUCGGGACAGAUACUCUGCGGGCAAAAGGGGUGGAUUUAAUACCUUUAGAGACAGGGAAAAUUAUGACAGAGGUUACUCUAGCCUGCUUAAAAGAGAUUUUGGG | 0.77 ratio |
| UCCUUCUAUGAUGGGGAUUCCACCAGUACUGUUGCUGCUCUUCUCAUAGACUUCAAAAGCUCAUUGCUUCCUCACCUCCCAGUUCAUUUCCAUGGAUCAAGCAAUUUUCUGAUGAUUGCC | 0.43 ratio |
| GAUGCCCGCACAAAACAGCUGAGGCAGCUACUGGAGAAGGUGCAAAACAUGUCUCAAUCCAUAGAAGUCUUGGACAGGCGAACUCAGAGAGACCUGCAGUACGUGGAGAAGAUGGAGAAC | 0.268 ratio |
| UGUGUGAUCUGUGAUUCCUACGUGCGUCCCUGCACCCUGGUCCGCAUAUGUGAUGAGUGUAACUAUGGAUCUUACCAGGGCCGGUGUGUAAUCUGUGGCGGCCCCGGAGUCUCCGAUGCC | 0.116 ratio |
| ACAAAGCACUUCAUCUAUUUUUACUUGGGUCAAGUUGCAAUCCUCCUCUUCAAGUCAGGCUAGGUGGCCAUGGUGAAGGUGUCAGUGGCGGCGGCAGCGAUGGCAAGCAGGCGGCGUUGC | 0.333 ratio |
| UAUAUAUAUAUAUAUCAAAAAGCCAAAAUCUUUAUUUUUAUGCACCUAGAAUAUUUUAAAUAGUUCUCAAUAUUAAAAAGUAUGAGUUGUAAGUAAUCUUGCCAAAAGUGAGCGGGUUAG | 35.4 ratio |
| CUGUCCAGCACUGCCACGCCCGUGGAGUUGUCCAUCGGGAUAUCAAGGAUGAGAACAUCCUGAUCGACCUAUGCCGGGGUUCCAUUAAACUCAUUGAUUUUGGUUCCGGCGCCCUGCUUC | 0.0811 ratio |
| AGUGACGAGGAUGGGUGACUGUCAGCCCUGGCUCCUUGUCCAUCAGACUUCCACGACAGUGUUGUGUGCACUUCAGCACGAGCAGGGUUGUUCUUCCCGUUAUUGUUGGUUUUGAGACAG | 0.0974 ratio |
| UGUGGAAUCAAGCACCUUCACUCUGCUGGAAUUAUUCAUCGGGACUUAAAGCCUAGUAAUAUAGUAGUCAAAUCAGACUGCACUUUGAAGAUUCUUGAUUUUGGACUGGCGAGGACUGCA | 0.558 ratio |
| CUCAUGCAGAAGGAUUUUGUCUCCCCGGACUAUUUGAAGAAGUGGUCAGCUAAAGGAAUCCAGGUUGUGAGUUGGACUGUCAAUACCUUUGAUGAAAAGAAUUACUACGAGUCCCACCUU | 0.102 ratio |
| UUUAAAACAAAAAAUAUAUUAAUUUACAUAUAAGGGGAUUUAUGAUAAUUGUAUUAUAUCUAGUUGAGUUUCAUAUUCUUAAUUAGCCUGUAAAUAAAAAUGACAUAUUCUACAUUAAAG | 1.23 ratio |

For quick reference, copied from above (set 1):
| Strand | RBNS enrichment (R) |
| --- | --- |
| GUCCAGUAUAAUUUUCCCUGAUAUGAAAAAAUGUGCAUUUUUUUCACUUAGCAACAAAGUACCUUCUAAUUUCCAAUAGUCCGUGAAAGUUGGGGCUGAAGUACCUAAGU | 1.02 |
| UUACUUAUUCUAUUCAAGGCAUAGGGCCAAAGCAUUAAGUAUAAUUUAAUCCCAUACAUUCGAGUUAAGUUUAGUGUUGAUGUUCCAUCAUUCUGGACCUCCCAGGAGUU | 0.424 |
| UUGAGAAAUGGAAAUGCCACCUCAACUUAAAUAAUCACAGUUGGUCAUUUAUGCCCACUUUAAAAUGUAGGGAGUCUGUUUCGGCCCCUUUUCUGGAGUAUAUUUGUACC | 0.339 |
| UGAGCCCUGGGUGGCCGUGCAGUUUCAGUUAUUUUUAGCAGUGCACUGUUUGAGGAAAAAUUACCUGUCUUGACUUCCUGUGUUUAUCAUCUUAAGUAUUGUAAGCUGCU | 0.455 |
| GACUCACCUUCACACGUGAGACUUCGCUCUUACCCCAGCCCCCACCGCUGGAGGGGUUUCAAUCCCCCACCCUGGGGCUCUUCUGCGCAGAAGCUGAAGUCUACGCUCCU | 0.194 |
